# Literature values, collected from citations in different studies.
# Each line is one published result; not all experiments were run side by side. Numbers after ± are the reported error.
Structure (SMILES),target,test,test system,setting,how to read,measurement,result
CC(C)[C@H](NC(=O)[C@H](CCCNC(=N)N)NC(=O)N[C@@H](Cc1ccccc1)C(=O)O)C(=O)N[C@H](C=O)CCCNC(=N)N,CTSB,,,,,IC50,900 nM
Cc1cc(O)c2c(c1)C(=O)c1cc(O)cc(O)c1C2=O,CK2 I174A mutant,,,concentration not given,reference: wild-type CK2 over I174A,potency reduction,5.1 to 7.3 fold
CC[C@H]1C[C@H](C)[C@@]2(NC1=O)O[C@@H](C[C@H](O)[C@@H](C)CC/C=C/C=C(\C)[C@@H]1C/C=C/C=C/[C@H](O)[C@H](C)[C@@H](O)[C@@H](CCC(C)=O)C(=O)N[C@@H](C(C)C)C(=O)N[C@@H](Cc3cccc(O)c3)C(=O)N3CCC[C@H](N3)C(=O)O1)[C@H](C)[C@H](O)[C@@H]2C,IMPDH2,"binding, modulator",,added: PPIA,,EC50,11.5 nM
O=C1Nc2ccc(Cl)cc2[C@@](C#CC2CC2)(C(F)(F)F)O1,HIV-1 reverse transcriptase K101Q,,,,reference: mutant over wild type,EC50 fold change,3.06 fold
CN(C)C(=N)N=C(N)N,OCT1 human,,human,"dose not given, added: verapamil",,glucose-lowering effect,decreased
CC(=O)NC[C@H]1CN(c2ccc(N3CCOCC3)c(F)c2)C(=O)O1,mitochondrial ribosome,inhibitor,,,,IC50,16000 nM
CC(O)(C(F)F)C(NC(=O)c1ccc(C#CC#Cc2ccc(N)cc2)cc1)C(=O)NO (centres unmarked),Escherichia coli LpxC,,,,,residence time,~12 h
CC1(C)NC(=O)C(Cc2ccc(O)cc2)NC(=O)CNC(=O)C(Cc2ccc3ccccc3c2)NC(=O)C(CCCN=C(N)N)NC1=O (centres unmarked),human CXCR4 D97A mutant,,,,,EC50,350 nM
CC(C)(O/N=C(\C(=O)N[C@@H]1C(=O)N2C(C(=O)[O-])=C(C[N+]3(CCNC(=O)c4ccc(O)c(O)c4Cl)CCCC3)CS[C@H]12)c1csc(N)n1)C(=O)O,AmpC beta-lactamase,substrate,,,,kcat,0.08 s⁻¹
COc1ccc2c(c1)[nH]c1c(C)nccc12,human CDK7/cyclin H,"kinase activity, inhibitor",,,,IC50,> 10000 nM
CCCCCCCCCCCCCC(=O)O[C@@H]1[C@@H](C)[C@@]2(O)[C@@H](C=C(CO)C[C@]3(O)C(=O)C(C)=C[C@@H]23)[C@@H]2C(C)(C)[C@]12OC(C)=O,phorbol ester binding site,,,reference compound,,Hill coefficient,1
Clc1cc2c(cc1Cl)Oc1cc(Cl)c(Cl)cc1O2,Atlantic cod AHR2a,"reporter gene, agonist",Gadus morhua,,,EC50,> 10 nM
CC=O,ADH1 H48S Saccharomyces cerevisiae,"reduction, substrate",,"pH 7.3, 30 °C",,kcat,2700 s⁻¹
O=C(Cc1cccs1)N[C@@H]1C(=O)N2C(C(=O)O)=C(/C=C/c3ccc([N+](=O)[O-])cc3[N+](=O)[O-])CS[C@H]12,NDM-1 metallo-beta-lactamase wild type,substrate,,,,kcat,15.4 ± 0.4 s⁻¹

# Excerpt of the above:
Structure (SMILES),target,test,test system,setting,how to read,measurement,result
CC(=O)NC[C@H]1CN(c2ccc(N3CCOCC3)c(F)c2)C(=O)O1,mitochondrial ribosome,inhibitor,,,,IC50,16000 nM
Cc1cc(O)c2c(c1)C(=O)c1cc(O)cc(O)c1C2=O,CK2 I174A mutant,,,concentration not given,reference: wild-type CK2 over I174A,potency reduction,5.1 to 7.3 fold
